# Experimental data from different studies.
# Each numbered part is a random draw from the data of one study; scales do not carry over between parts. Changes are numbered by the printed parent chain.

# Study 1
# Target: CCNA2, cyclin fold, Cln2 fusion (human)
# Method: yeast growth competition, sequencing
# Sample: yeast
# Setting: strong parent motif
# Baseline: not given
# Reading: higher = stronger binding
# Starting sequence: CDT1 docking peptide (human); PPARRRLRLSVDE; partner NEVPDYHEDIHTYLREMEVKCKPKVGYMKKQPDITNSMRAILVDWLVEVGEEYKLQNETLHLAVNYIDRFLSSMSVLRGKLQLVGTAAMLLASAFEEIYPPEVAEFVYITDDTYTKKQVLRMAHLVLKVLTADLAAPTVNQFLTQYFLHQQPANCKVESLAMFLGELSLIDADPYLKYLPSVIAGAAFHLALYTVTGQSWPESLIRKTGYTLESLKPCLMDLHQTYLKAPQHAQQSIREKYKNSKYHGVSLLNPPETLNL
Substitution,normalised enrichment score
PPARRRLALSVDE [R8A],4.5
PPARRRLRLSVAE [D12A],5.45
PPARKRLRLSVDE [R5K],1.04
PPARRRLRLAVDE [S10A],3.7
PPAARRLRLSVDE [R4A],1.97
APARRRLRLSVDE [P1A],3.58
PPARRRLRLSVDA [E13A],5.01

# Study 2
# Target: RNA binding protein fox-1 homolog 2, RRM domain, GST-SBP tag (RBFOX2, Homo sapiens, UniProt O43251-10, residues 100-194)
# Method: RNA Bind-n-Seq
# Form: RNA
# Sample: in vitro
# Concentration: 365 nM
# Setting: natural RNA segment, single round, ends assumed
# Baseline: no-protein control
# Reading: higher = stronger binding
# All sequences stand within: GGGAGUUCUACAGUCCGACGAUC … UGGAAUUCUCGGGUGCCAA
# Construct (chain): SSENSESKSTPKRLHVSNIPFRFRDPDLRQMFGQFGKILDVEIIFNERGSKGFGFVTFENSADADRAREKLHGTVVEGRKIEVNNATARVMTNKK
Strand,RBNS enrichment (R)
CCAGGUGUUCUCUGAAAGCUUAGCCUUAAGAGAACACGCAGAGAGUUUCCCUAGAUAUACUCCUGCCUCCAGGUGCUGGGACACACCUUUGCAAAAUGCUGUGGGAAGCA,0.681
GGAAAAAAAAGACAAAUUAAAGGAGGGGCUAGGGGAGAAGCUGCAGCUGGAGCUGAAGGCUCGAUCUUGUGAACCCCUAAAUCCGCUCCCUCCUAACAGCACGGAUUCUC,0.422
GAAAAGUUAAGAUAUCUGCUUACAUUGAUUUUGUAGACACAUUAAGUCAAGAUUUGGAAUUUAAGUCACUGGCAGGUAUCUGUGCAUUCAUAGAACUUAUAAAGGUCCCA,0.522
AGCAAAAGUUGGGGAGAGGAUUUUGUUGUUUGCCUAGACUAGUCCUGAGGGAAGAAACACCACGUCACAGUCACGAUGUCUGCCUUACUGGCUUCCCCAGGGAAGGAAAA,0.694
CUCUUUGUGACCACAGGGUUGCAGGACGUUCUUGAAAGAUGUGUCACUAAAUGUUUGUUUUUGCUCAUCUCUUUCUGAGGUCAUCUGCAGAGAGUGCCCCAUGCCUUCUU,0.584
CUCAGAUAAUUAAUUUGAAGCAAGAAAGAAGGUAAAAAUGAGGUUUCCCAGCCAUGUUGCUGCUUUUGGCAUGGUCGCUUCUCUGAGGUUCACCUAGGCUUUCACAGCAA,0.362
GUCCCUGCUCACUUCCAGUCAGGUCUCAGCUCCACCCCACUGUUUCUUGGUCAGCCUCAGUGAUGGCCUGACCCCAGCUGUGAGGCCUUGUGAGCUAAGGCUGAAGAGAC,0.336
UUGUCUCUUUUCAACUUAUUUAAAUGACAGCACCUGAGAAGAGGAACCGUUUUACACUGGAUGUUUCUCAUGUAGAACAAGAAAUCUUUCUGGAAUUGAUGUUUACAUGU,0.845

# Study 3
# Target: Fragile X messenger ribonucleoprotein 1, C-terminal low-complexity region (Fmr1, Mus musculus, UniProt P35922)
# Method: RNA Bind-n-Seq
# Form: RNA
# Sample: in vitro
# Concentration: 200 nM
# Setting: whole 134-nt RNA, ends assumed
# With: 150 mM LiCl
# Baseline: input library
# Reading: higher = stronger binding
# All molecules: 7-deaza-guanosine replaces G
# All sequences stand within: GGGAGUUCUACAGUCCGACGAUC … UGGAAUUCUCGGGUGUCAAGG
Strand,log2 enrichment
UCAAGUCCUGUGCUACACAUCGUAUGUACCGAAUCGGGGCCGGGCCGGGCCGGGAAAGUAUUAUGUUACGCCGUUCGGAUCUGCACUUCC,0.48
AGUCCUGUGCUACACAUCGUAUGUACCGAAUCGGGGCCCCGGGCCCCGGCCCCGGGGAAAGUAUUAUGUUACGCCGUUCGGAUCUGCACU,-2.97
GUCCUGUGCUACACAUCGUAUGUACCGAAUCGGCCCCCGGGCCCCCGGGCCCCCGGGGAAAGUAUUAUGUUACGCCGUUCGGAUCUGCAC,-2.51
UCCUCAAGUCCUGUGCUACACAUCGUAUGUACCGAAUCGGGGUGGUGGGUGGAAAGUAUUAUGUUACGCCGUUCGGAUCUGCACUUCCAG,-0.132
UCAGAGGAAUAUCCUUGACUUCCCCCAGCAUGUUUCCCCCUCCAAGGACAUCCGGACAGCCAGCACAGAGGCCGACAAGAAGCUCUCUGA,1.14
GUCCUGUGCUACACAUCGUAUGUACCGAAUCGGGGUUUUGGGGUUUUGGGUUUUGGGGAAAGUAUUAUGUUACGCCGUUCGGAUCUGCAC,-0.374
AAGUCCUGUGCUACACAUCGUAUGUACCGAAUCGGGUUUUUUUGGGAGGGAAAGGGAAAGUAUUAUGUUACGCCGUUCGGAUCUGCACUU,-0.556
CCUGUGCUACACAUCGUAUGUACCGAAUCGGGUUUUUUGGGGUUUUUUGGUUUUUUGGGGAAAGUAUUAUGUUACGCCGUUCGGAUCUGC,-1.02

# Study 4
# Target: RING finger protein unkempt homolog, zinc fingers 1-6, GST-SBP tag (UNK, Homo sapiens, UniProt Q9C0B0, residues 30-357)
# Method: RNA Bind-n-Seq
# Form: RNA
# Sample: in vitro
# Concentration: not given
# Setting: RNA with constant flanks, human and mouse sites, ends assumed
# Baseline: input RNA pool
# Reading: higher = stronger binding
# All sequences stand within: GGGAGUUCUACAGUCCGACGAUC … CAACAGAGGAUUGAGCAUCA
# Construct (chain): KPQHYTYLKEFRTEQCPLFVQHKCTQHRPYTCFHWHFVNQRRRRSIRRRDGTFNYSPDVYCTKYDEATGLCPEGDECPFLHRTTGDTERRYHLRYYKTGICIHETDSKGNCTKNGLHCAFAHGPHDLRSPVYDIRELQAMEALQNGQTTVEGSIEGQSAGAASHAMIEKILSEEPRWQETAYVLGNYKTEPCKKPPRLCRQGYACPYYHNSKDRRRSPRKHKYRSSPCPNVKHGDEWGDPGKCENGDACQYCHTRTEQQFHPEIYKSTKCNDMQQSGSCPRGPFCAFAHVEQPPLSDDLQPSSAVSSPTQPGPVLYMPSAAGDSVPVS
Strand,bound/input enrichment [ratio]
AAUGAAACCGGCUUAUUGUCUUCAAUUAAAAAGUUCAUUAAAGGAAGCACACCCAAGGAAGAGAGAGAAAAUCCUUCGAAGCGGAGUAGAAUUGAACGUGAUAUAGAUAAUAAUUUAAUC,4.01
CUAGAGGAUUACUACCAAAGUGGAAGAAUGCUUUUGCGAAUGUCUCAAGCUCUGGGUCGAAUAGUUUUGGCUGGGCGUGAAAUGACUAGAUUGGCCGGUUUUACUGCUCGGAUUACAGAA,0.197
AGUUCCAGAGCUCCUUCAUUGGUUUUAAUAAACUCUAAGGUAGUUAAAGAUGAAGGGCCAGCAUAUAUUUAUAUGAUAAGUUUAGAUUAUGAGCGUGAGUACCAAUUAAGUUUGAAUGAA,1.51
AAUUCUAUUGAAGUAUUUAUUUUGUGAAGAUGGCAAUUUUGCAUUUGUUUAAAUUUUUUUCAUUCUUUAAUUUUGUUAUCAGUGCCAGCCCAAUAUACCUGCUCUACCAUUAUUUGCGGU,0.91
ACUGCUGCCAAAUUCAUUGGUGCAGGUGCUGCAACAGUAGGAGUUGCUGGUUCUGGUGCUGGUAUUGGAACAGUCUUUGGCAGUCUUAUCAUUGGUUAUGCCAGAAACCCUUCACUGAAG,0.117
UAUGUCGAGUUUCUCUAGGGCGCCCCAGCAAUGGGCCACUUUUGCUAGAAUAUGGUAUCUCUUAGAUGGGAAAAUGCAGCCACCUGGCAAACUUGCUGCUAUGGCAUCUAUAAGACUUCA,0.708
GCAGUGCAGCUGACUGCUCUGGUCAUGAGCAACCAGGCCAUGCAGCAGAGGCUCUUGGCCAUGCUAACGACCUAUGUCACCAAGGAGCUGCAGGCUGAGAUCCGCUAUGAGGACUAGGCC,0.0326
UACGUAAUCGAUGAAAAUGAUUAUAUGUCAUUCAUAAACAACCCCAGCCUCACCGUCACAGUGCCAAUUGCUGUUGGAGAGUCUGACUUUGAAAACUUAAAUACUGAAGAGUUCAGCAGU,0.0822
